Published values of several laboratories.
Parts stem from different laboratories: compare values within a part only. Changes are numbered by the printed parent chain.
UniProt P42336, sequence (whole entry, unmodified, looked up): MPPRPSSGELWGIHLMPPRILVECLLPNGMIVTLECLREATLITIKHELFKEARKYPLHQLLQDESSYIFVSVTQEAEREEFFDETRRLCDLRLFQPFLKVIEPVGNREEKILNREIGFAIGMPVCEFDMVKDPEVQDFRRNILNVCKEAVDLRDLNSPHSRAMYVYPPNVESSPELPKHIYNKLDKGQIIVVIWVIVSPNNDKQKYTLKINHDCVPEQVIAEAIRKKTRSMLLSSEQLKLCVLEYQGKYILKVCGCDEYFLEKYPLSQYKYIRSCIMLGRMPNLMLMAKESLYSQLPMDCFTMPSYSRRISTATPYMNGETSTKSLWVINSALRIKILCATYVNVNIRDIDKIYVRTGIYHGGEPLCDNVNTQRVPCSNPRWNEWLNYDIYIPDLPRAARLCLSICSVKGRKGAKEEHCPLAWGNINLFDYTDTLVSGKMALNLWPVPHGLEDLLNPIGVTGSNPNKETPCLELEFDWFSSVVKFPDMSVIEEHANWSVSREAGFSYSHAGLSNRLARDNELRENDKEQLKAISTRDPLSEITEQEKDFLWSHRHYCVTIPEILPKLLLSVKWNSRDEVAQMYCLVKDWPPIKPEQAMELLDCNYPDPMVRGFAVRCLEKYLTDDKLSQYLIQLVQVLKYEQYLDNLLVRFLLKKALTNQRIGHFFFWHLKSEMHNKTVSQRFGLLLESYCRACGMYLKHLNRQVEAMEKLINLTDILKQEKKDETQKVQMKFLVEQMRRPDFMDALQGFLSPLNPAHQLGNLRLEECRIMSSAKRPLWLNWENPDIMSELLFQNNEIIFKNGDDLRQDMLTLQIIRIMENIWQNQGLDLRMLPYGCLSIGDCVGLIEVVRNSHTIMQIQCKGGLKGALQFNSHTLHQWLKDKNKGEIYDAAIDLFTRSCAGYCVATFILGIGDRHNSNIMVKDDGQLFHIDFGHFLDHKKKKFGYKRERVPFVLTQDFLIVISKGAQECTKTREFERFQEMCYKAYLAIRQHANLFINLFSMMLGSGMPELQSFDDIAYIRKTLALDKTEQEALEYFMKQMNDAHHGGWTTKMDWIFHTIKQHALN
UniProt Q52WX2, sequence (whole entry, looked up): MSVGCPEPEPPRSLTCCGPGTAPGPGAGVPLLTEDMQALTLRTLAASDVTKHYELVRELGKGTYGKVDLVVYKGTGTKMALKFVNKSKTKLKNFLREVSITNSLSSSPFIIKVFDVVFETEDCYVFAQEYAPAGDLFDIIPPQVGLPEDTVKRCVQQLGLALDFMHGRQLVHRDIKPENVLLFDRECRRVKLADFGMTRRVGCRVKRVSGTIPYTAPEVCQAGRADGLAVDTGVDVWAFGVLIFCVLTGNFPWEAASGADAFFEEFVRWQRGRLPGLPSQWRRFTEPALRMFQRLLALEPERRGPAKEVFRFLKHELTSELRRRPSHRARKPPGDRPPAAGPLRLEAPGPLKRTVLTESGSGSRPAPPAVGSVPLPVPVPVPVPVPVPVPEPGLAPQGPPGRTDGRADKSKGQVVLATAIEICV
UniProt Q15303, sequence (whole entry, looked up): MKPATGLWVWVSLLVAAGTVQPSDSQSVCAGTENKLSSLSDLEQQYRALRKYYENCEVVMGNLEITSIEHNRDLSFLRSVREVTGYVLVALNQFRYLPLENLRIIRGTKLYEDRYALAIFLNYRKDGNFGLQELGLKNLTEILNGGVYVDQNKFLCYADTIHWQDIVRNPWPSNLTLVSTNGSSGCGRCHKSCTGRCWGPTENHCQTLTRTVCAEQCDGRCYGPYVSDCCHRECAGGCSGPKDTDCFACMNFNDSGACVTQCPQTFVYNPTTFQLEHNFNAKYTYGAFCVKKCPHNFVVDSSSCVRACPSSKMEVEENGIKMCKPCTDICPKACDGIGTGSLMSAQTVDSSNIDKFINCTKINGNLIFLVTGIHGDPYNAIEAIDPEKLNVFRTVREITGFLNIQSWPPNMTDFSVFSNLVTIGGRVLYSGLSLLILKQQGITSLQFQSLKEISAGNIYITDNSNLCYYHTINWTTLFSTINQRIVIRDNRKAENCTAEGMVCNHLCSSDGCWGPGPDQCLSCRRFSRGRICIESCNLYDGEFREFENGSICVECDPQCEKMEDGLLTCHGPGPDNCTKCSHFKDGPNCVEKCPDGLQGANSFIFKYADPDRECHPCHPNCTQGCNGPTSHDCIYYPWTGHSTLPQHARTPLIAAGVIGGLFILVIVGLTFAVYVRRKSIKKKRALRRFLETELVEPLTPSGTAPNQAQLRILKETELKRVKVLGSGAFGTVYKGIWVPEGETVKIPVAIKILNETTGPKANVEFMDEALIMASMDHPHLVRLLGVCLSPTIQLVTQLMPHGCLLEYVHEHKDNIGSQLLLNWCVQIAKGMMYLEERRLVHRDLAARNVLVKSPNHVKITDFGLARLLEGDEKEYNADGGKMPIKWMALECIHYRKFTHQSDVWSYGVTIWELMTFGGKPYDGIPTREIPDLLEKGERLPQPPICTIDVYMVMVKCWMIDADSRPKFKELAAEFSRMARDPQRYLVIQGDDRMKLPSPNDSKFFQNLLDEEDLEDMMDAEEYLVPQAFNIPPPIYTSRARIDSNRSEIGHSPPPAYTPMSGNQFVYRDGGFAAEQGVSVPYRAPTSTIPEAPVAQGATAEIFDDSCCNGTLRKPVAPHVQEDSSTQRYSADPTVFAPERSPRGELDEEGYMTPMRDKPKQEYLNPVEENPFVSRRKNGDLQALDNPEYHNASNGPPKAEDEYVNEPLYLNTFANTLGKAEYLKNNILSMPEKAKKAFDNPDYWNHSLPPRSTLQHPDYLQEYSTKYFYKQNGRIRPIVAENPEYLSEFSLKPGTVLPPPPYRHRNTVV
UniProt Q08881, sequence (whole entry, looked up): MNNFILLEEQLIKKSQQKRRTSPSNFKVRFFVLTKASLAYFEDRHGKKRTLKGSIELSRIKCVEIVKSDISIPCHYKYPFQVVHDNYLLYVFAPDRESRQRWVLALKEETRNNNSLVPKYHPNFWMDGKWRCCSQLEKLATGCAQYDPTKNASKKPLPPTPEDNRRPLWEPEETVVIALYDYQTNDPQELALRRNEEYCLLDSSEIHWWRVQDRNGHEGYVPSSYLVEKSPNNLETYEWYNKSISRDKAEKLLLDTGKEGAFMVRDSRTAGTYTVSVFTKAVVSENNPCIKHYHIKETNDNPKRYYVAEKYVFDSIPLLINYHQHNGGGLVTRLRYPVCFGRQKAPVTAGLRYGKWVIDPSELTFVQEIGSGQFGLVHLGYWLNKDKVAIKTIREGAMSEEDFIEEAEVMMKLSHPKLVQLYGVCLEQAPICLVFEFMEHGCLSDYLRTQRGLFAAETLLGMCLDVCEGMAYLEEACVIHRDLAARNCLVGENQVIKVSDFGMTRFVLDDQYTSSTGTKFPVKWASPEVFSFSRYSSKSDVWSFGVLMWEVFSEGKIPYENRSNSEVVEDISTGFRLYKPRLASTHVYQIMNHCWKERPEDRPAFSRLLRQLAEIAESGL
UniProt Q00526, sequence (whole entry, looked up): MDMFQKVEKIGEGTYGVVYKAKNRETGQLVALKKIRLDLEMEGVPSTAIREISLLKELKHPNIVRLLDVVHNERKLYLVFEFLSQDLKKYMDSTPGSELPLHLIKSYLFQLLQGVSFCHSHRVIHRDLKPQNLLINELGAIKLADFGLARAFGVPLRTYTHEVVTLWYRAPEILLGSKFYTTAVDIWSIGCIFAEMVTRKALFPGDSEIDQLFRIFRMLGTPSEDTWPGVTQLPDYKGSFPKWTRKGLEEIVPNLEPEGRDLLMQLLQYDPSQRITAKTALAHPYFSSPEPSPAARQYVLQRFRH
UniProt Q9UKS7, sequence (whole entry, looked up): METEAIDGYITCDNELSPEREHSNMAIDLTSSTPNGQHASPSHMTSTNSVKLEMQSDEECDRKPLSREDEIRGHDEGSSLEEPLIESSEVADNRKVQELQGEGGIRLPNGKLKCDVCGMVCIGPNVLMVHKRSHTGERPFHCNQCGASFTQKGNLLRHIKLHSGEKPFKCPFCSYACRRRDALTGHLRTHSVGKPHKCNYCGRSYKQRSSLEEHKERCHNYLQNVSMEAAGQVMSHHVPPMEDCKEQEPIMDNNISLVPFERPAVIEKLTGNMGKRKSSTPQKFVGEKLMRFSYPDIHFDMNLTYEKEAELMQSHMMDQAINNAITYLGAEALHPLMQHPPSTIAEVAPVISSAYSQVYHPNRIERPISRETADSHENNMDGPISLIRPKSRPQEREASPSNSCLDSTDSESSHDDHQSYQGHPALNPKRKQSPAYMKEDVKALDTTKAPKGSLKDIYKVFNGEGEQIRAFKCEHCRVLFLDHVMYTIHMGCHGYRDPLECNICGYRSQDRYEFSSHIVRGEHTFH
UniProt Q96L34, sequence (whole entry, looked up): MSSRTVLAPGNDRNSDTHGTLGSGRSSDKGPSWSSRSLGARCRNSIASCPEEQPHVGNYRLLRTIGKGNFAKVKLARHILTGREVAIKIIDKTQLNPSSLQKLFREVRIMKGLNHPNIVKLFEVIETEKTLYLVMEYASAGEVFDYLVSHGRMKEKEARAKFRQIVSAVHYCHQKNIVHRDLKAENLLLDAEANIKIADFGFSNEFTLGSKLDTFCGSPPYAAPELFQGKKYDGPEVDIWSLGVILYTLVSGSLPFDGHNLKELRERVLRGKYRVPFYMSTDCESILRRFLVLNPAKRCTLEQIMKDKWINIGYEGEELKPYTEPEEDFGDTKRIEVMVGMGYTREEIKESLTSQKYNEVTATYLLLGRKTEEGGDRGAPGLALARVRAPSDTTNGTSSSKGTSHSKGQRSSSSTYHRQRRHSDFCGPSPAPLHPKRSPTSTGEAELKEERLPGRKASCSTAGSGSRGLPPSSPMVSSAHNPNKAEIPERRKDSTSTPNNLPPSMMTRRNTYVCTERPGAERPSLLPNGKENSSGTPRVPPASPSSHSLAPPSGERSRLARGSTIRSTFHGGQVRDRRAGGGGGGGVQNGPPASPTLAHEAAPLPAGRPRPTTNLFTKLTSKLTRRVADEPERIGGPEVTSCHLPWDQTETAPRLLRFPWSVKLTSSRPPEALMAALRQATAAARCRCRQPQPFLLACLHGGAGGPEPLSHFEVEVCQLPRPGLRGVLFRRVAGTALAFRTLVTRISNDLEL

Block 1
Compound: Cn1cncc1[C@](O)(COc1ccc(C#N)cc1-c1ccc(OC(F)(F)F)cc1)c1ccc(C#N)cc1
Technique: competition with immobilised ligand
Tested at: 1 µM
Quantity: remaining binding
ITK (Homo sapiens, UniProt Q08881); cell-free assay: 91%
MAPK14 (Homo sapiens, UniProt Q16539); cell-free assay: 100%
ERBB4 (Homo sapiens, UniProt Q15303); cell-free assay: 81%
CAMK2D (Homo sapiens, UniProt Q13557); cell-free assay: 100%
CDK3 (Homo sapiens, UniProt Q00526); cell-free assay: 71%
SBK1 (Homo sapiens, UniProt Q52WX2); cell-free assay: 100%
EGFR (Homo sapiens, UniProt P00533, L858R); cell-free assay: 86%
Non-receptor tyrosine-protein kinase TYK2, JH2 (TYK2, Homo sapiens, UniProt P29597); cell-free assay: 100%
Myosin-IIIb (MYO3B, Homo sapiens, UniProt Q8WXR4); binding: 71%
PDPK1 (Homo sapiens, UniProt O15530); cell-free assay: 87%
MARK4 (Homo sapiens, UniProt Q96L34); cell-free assay: 56%
Cyclin-dependent kinase 4, with cyclin D3 (CDK4, Homo sapiens, UniProt P11802); cell-free assay: 100%
MAP3K6 (Homo sapiens, UniProt O95382); cell-free assay: 76%
CDC42BPB (Homo sapiens, UniProt Q9Y5S2); cell-free assay: 76%
Ribosomal protein S6 kinase alpha-1, N-terminal kinase domain (RPS6KA1, Homo sapiens, UniProt Q15418); cell-free assay: 89%
MYLK4 (Homo sapiens, UniProt Q86YV6); cell-free assay: 93%
PIK3CA (Homo sapiens, UniProt P42336, Q546K); cell-free assay: 82%

Block 2
Target: tungstate, free oxyanion
Technique: microfluidic competitive inhibition
Matrix: in vitro, cell-free expressed
Tested at: not given
Setting: derived from inhibition constants, unchanged parent 2230 nM
Direction: lower = stronger binding
Quantity: oxyanion analog dissociation constant
Starting sequence: PafA, mature enzyme, eGFP fusion (Elizabethkingia meningoseptica, UniProt Q9KJX5); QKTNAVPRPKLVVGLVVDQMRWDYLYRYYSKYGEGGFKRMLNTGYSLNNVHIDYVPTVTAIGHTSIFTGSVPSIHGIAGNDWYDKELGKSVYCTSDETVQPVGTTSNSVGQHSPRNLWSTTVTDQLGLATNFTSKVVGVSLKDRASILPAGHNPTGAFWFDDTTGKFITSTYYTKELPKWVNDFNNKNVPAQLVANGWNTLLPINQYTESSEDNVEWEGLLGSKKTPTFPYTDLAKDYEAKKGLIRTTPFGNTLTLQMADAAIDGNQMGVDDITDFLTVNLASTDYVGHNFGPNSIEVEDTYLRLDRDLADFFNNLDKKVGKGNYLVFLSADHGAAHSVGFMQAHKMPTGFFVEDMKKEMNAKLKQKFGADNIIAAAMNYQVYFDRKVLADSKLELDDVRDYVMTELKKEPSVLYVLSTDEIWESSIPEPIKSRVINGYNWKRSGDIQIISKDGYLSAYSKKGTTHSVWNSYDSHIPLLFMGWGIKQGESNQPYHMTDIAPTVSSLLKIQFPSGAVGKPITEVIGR
Y54V: 2.6 µM
V71A: 1.9 µM
V102G: 671 nM
N49G: 1.88 µM
V382A: 1.59 µM
I422V: 2.21 µM
G323A: 2.29 µM
T419V: 1.6 µM

Block 3
Target: CCND2, cyclin fold, Cln2 fusion (human)
Technique: yeast growth competition, sequencing
Matrix: yeast
Setting: weak parent motif
Relative to: not given
Direction: higher = stronger binding
Quantity: normalised enrichment score
Starting sequence: viral docking peptide; TSVRRALFTGGSD
F8M: 0.0951
R5E: 0.135
S12W: -0.25
T9L: -0.118
F8T: -0.159
V3T: -0.0379
R4C: -0.318
T1A: 0.557

Further values, each from its own experiment
O=C1CCC(N2Cc3c(ccc4c3OCC43CCN(Cc4ccccc4)CC3)C2=O)C(=O)N1 (stereo not shown)
protein remaining (CRBN/Zinc finger protein Helios (Homo sapiens, UniProt Q96SW2+Q9UKS7); degrader, HiBiT; HEK293; 0.5081 nM, 6 h): 115%

A few entries again (block 1):
MAPK14 (Homo sapiens, UniProt Q16539); cell-free assay: 100%
ERBB4 (Homo sapiens, UniProt Q15303); cell-free assay: 81%
CAMK2D (Homo sapiens, UniProt Q13557); cell-free assay: 100%
CDK3 (Homo sapiens, UniProt Q00526); cell-free assay: 71%
SBK1 (Homo sapiens, UniProt Q52WX2); cell-free assay: 100%
